# Published values gathered from unrelated publications.
# Each numbered part is a random draw from the data of one study; scales do not carry over between parts. Changes are numbered by the printed parent chain.

# Study 1
# Target: RING finger protein unkempt homolog, zinc fingers 1-6, GST-SBP tag (UNK, Homo sapiens, UniProt Q9C0B0, residues 30-357)
# Sequence of UniProt Q9C0B0 (30-357, looked up): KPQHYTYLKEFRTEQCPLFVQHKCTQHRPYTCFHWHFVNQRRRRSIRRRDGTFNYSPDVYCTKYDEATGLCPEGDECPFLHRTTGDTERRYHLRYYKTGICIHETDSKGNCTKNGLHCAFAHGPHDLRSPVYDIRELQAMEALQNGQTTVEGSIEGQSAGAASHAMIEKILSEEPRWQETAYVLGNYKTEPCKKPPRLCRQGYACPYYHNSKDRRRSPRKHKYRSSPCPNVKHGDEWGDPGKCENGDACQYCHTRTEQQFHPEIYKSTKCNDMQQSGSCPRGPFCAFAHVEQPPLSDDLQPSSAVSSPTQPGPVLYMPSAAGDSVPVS
# Technique: RNA Bind-n-Seq
# Form: RNA
# Medium: in vitro
# Concentration: not given
# Notes: RNA with constant flanks, human and mouse sites, ends assumed
# Baseline: input RNA pool
# Direction: higher = stronger binding
Strand,bound/input enrichment [ratio]
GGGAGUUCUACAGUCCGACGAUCGAGAUGCUAGCACACAGGGCAGUCCUGGCUUGCUGUAGCCCCUAUCUAUUUGAAAUCUUCAAUAGUGACAGUGACCCUCAUGGAGUUUCUCAUGUGAAGUUGGAUGAUCUCAAUCCAGAACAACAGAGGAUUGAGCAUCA,0.349
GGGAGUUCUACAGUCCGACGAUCUUCUUUCCCUUCGGCGUUAUUUAUUUGUGUAUUUAUUUAUUUAUUUAUUUAUUUAUCUAUCUAUCUAUCAACUUUUGGUCCAUUCAUCACCAACAUAAAGCAAAAACAAUUUUUUACAUACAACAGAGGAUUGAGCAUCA,11.1
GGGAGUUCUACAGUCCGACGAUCACUGUGCAUGAACUGUUACCGGAACGACAUGAACAGAGAAGUGGUAAAGACAGACUCUGCCACCACAAGGAUCCCCGAGCUGGAUUUUGAGAUUCCAGCCUUCAGCCAGAAGGGAGCUCUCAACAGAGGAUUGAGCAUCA,0.205
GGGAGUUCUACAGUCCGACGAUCGGUCUUCUUUUUUUUAUGUCGGAAUAUGAAGCAACAAAUUUAUUGAUCCGAGCUCUGUGUCACUUUUAUGAUCAAGAUGAGGAGGAAGGUCUCCAAUCUGAUGGUGUUAUUGAUGAUGCACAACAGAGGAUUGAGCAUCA,0.823
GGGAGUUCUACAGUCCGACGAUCGACCAGACUCCAAAAUGGAAACCAGCCAAUCUAAAAGAUGUUACGGAUGAAGACUUGAAUAGUUACUUUAAAUCUCUGGGAAGCAGUGAUUUGAAAUUCUAAAGUUUAUUUUGGAGCAAACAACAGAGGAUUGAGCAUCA,0.237
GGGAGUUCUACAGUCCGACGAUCGGAAUUCUCUGCUCACUGCUGGGUACUGUUCUGCUGUGGGUGCCCAGGAAGGGACUACACCUCUUCGCAGUGUUUUAUACCUUUGGUAAUAUCGCAUCAAUUGGGAGUACCAUCUUCCUCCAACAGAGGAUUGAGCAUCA,0.151
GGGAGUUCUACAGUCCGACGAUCAACUUCUCCGACUACAUCCGUGGAGGCAUCGUCAGUCAGGUCAAAGUACCUAAGAAGAUUAGCUUUAAAUCCUUGGUGGCCUCACUGGCAGAACCUGACUUUGUGGUGACGGACUUCGCCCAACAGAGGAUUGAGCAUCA,0.191
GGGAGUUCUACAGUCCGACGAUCGGCUUCGUGUCCUGCUUGUAAGAAAGAGAUUCAGUUGGUUAUUAAAGUUUUUAUAGCAUAGUUGAGUCAGUCACAGAGAAAUACUAGGAGGACCAGGUCAUUUAUCAAAAAAAUCAGUAUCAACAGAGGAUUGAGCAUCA,0.417

# Study 2
# Target: Histone acetyltransferase KAT6A, winged helix 1, GST fusion (KAT6A, Homo sapiens, UniProt Q92794, residues 1-85)
# Technique: protein binding microarray
# Form: double-stranded DNA, one strand shown
# Medium: in vitro
# Concentration: not given
# Notes: 8-mer, flanks averaged, mean of 2 arrays, mostly near background
# Baseline: not given
# Direction: higher = stronger binding
# Target sequence (chain): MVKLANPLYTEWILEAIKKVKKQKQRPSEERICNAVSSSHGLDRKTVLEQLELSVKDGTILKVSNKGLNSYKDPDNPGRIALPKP
Strand,E-score
ATAAGCAA,-0.194
GAGGACGA,-0.122
CAACAGTG,-0.151
ACCTAAGG,-0.0318
CTGTGTTA,0.0155
CTTGGCGA,-0.0201
AGTCCACA,-0.151
TAAGACAA,0.0798
AATATGCC,0.0687
GAGTCACA,-0.151
TCCGTGAA,0.101
CGTGTAGC,0.0586
ACGATTCG,0.0973
CGACAGTC,-0.105
GACTGCAA,-0.126

# Study 3
# Target: Prothrombin, mature alpha-thrombin (F2, Homo sapiens, UniProt P00734)
# Technique: aptamer microarray, sandwich
# Form: DNA with 2'F-ANA
# Medium: in vitro
# Concentration: 200 nM
# Notes: whole 15-mer aptamer, many near background
# With: Cy3 exosite-II aptamer, 400 nM
# Direction: higher = stronger binding
# Strand: GGTTGGTGTGGTTGG
Modification,mean fluorescence intensity [a.u.]
2'F-ANA at 1 5 6 7 8 10 11 13 15,74.6
2'F-ANA at 2 4 11 13 14 15,103
2'F-ANA at 4 6 9 12 15,397
2'F-ANA at 4 5 9 10,42.5
2'F-ANA at 4 5 6 9 11 14,45.4
2'F-ANA at 1 2 3 8 9 11 12 13 14,102
2'F-ANA at 1 2 3 4 5 7 12,111
2'F-ANA at 4 5 12 13,159
2'F-ANA at 1 2 3 5 6 14 15,50
2'F-ANA at 1 3 5 6 9 11 13 14 15,65.4
2'F-ANA at 1 2 3 6 8 14 15,76.3
2'F-ANA at 1 2 3 4 5 7 13 15,75.6
2'F-ANA at 2 3 4 5 9 10 11 12 15,56.8
2'F-ANA at 4 6 7 8 10 13 14 15,57.7
2'F-ANA at 1 2 4 7 8 13 14 15,57.3

# Further values, each from its own experiment
# CCNE2: CCNE2, cyclin fold, Cln2 fusion (human)
# P1: PKMYT1 docking peptide (human); SFEPRNLLSLFED; partner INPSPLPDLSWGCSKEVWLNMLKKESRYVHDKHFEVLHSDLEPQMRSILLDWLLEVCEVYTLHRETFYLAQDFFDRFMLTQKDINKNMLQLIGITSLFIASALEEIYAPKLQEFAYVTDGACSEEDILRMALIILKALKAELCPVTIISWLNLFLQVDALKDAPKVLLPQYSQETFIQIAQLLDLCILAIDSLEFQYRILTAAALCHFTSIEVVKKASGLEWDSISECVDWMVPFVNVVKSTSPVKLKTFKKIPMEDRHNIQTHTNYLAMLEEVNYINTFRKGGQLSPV
Molecule,target,test,test system,conditions,how to read,endpoint,value
P1 F11R,CCNE2,"yeast growth competition, sequencing",yeast,weak parent motif,"baseline: not given, higher = stronger binding",normalised enrichment score,-0.48
"PhoQ, residues 284 288 289 292 302 303 SCEHLI","PhoP, residues 12 14 15 18 19 AQALL (Escherichia coli, UniProt P23836)","Sort-seq, refers to: YFP reporter",E. coli,"PhoQ-PhoP variant library, with: 10 µM Mg2+","baseline: high Mg2+ state, higher = stronger signaling",fold induction,0.662
P1 F11W,CCNE2,"yeast growth competition, sequencing",yeast,weak parent motif,"baseline: not given, higher = stronger binding",normalised enrichment score,0.447
P1 R5W,CCNE2,"yeast growth competition, sequencing",yeast,weak parent motif,"baseline: not given, higher = stronger binding",normalised enrichment score,0.0208
GFGFLLFICKLTF,human cyclin B2,"peptide binding, yeast competitive growth sequencing","peptide, Saccharomyces cerevisiae, cyclin B2-Cln2 fusion","concentration not given, library 2",direction not given,binding enrichment score,-0.194

# Excerpt of the above (study 3):
Modification,mean fluorescence intensity [a.u.]
2'F-ANA at 1 2 3 4 5 7 12,111
2'F-ANA at 4 5 12 13,159
2'F-ANA at 1 2 3 5 6 14 15,50
2'F-ANA at 1 3 5 6 9 11 13 14 15,65.4
2'F-ANA at 1 2 3 6 8 14 15,76.3
2'F-ANA at 1 2 3 4 5 7 13 15,75.6
